Experimental data of several laboratories.
Each numbered part is a random draw from the data of one study; scales do not carry over between parts. Positions count from the first letter of the parent shown.

Series 1
Target: ABI1, truncated, D143A, DHFR fusion (Arabidopsis thaliana)
Method: DHFR PCA, deep sequencing
Matrix: yeast
Notes: methotrexate growth selection, single substitutions
Added: (+)-ABA 0.0091 µM
Relative to: wild-type fitted maximum
Reading: higher = stronger binding
Starting sequence: PYL1, truncated, DHFR fusion (Arabidopsis thaliana); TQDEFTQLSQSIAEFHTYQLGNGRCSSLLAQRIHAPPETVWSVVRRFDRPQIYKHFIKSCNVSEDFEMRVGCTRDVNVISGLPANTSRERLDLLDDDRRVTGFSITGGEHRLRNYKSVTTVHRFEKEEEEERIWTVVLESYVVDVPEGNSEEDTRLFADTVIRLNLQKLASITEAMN; partner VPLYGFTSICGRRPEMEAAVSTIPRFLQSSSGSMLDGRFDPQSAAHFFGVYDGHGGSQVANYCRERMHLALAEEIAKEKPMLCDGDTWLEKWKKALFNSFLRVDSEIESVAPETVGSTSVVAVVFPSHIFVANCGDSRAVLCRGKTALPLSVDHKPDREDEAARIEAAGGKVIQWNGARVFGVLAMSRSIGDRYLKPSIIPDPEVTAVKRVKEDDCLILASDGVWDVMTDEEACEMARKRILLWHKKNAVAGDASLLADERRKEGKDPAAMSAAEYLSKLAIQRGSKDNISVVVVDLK
| Variant | relative binding score [%] |
| --- | --- |
| F157C | 1.22 |
| V100F | -8.94 |
| P50H | 7.8 |
| N165Q | -5.53 |
| V70E | 6.66 |
| E4V | 31.8 |
| R69K | 62.4 |
| G148E | 3.97 |
| K168R | 23.4 |
| N165K | 3.21 |

Series 2
Target: Interferon regulatory factor 5, full length, phosphomimetic (IRF5, Homo sapiens, UniProt Q13568-2, residues 1-514, S451D/S453D/S456D/S462D)
Method: protein-binding microarray
Form: double-stranded DNA, one strand shown
Matrix: in vitro
Tested at: 940 nM top
Notes: 60-bp whole probe
Added: salmon DNA 0.4 mg/ml
Relative to: random background probes
Reading: higher = stronger binding
All sequences stand within: GCCTAGCAC … GTCTTGATTCGCTTGACGCTGCTG
| Sequence | fitted relative affinity [z-score] |
| --- | --- |
| AACGATATCAGTATCGAGACGTGCTAG | 1.62 |
| ATGTATATATGTGTATATATGTGCTAG | 0.217 |
| TCAGCATTTTTTTTATCACTGTGCTAG | 1.05 |
| TTAGATCTCGGTATCGATTAGTGCTAG | 5.29 |
| TCATGTTTATGTCTGGGACTGTGCTAG | -0.103 |
| GACGATATCGGGACTGCAGACGTGCTA | -0.16 |
| GACGGTATCGGACGGGGGACGTGCTAG | 4.19 |
| TTAGATATCAGTTTCGATTGGTGCTAG | 8.55 |
| GACGAACTGGGGTATCGAAACGTGCTA | 1.49 |
| TCATGCTCATTTTTCAGACTGTGCTAG | 0.473 |
| TTAGGCCTGCTTTTCCTTTAGTGCTAG | 0.0496 |
| GAAGGTATCGGTTTCGGGACGTGCTAG | 8.52 |
| GAGGGACTGGGGTATCGGGACGTGCTA | 0.577 |
| GACAGTATCGGTTTCGGGACGTGCTAG | 10.2 |
| CTAAAAATCCCATTAAATTTGTGCTAG | 0.325 |
| GAGTCTTCCCTTTTAAGTTCGTGCTAG | 0.796 |
| GGCGATTTCAGTCTCGAGACGTGCTAG | 2.08 |
| TCAATTTTCGGGTAGATGACTGTGCTA | 1.67 |
| CACTCTCTGGGCTGTGGGTTTGTGCTA | 0.599 |
| GCCTTGTTCGTCGCTCCGCTGTGCTAG | -0.0357 |
| TTAAATCTCAGTTTCGATTAGTGCTAG | 8.84 |
| GACGATTTCAATATCGAGACGTGCTAG | 0.549 |
| TTAGGTTCCCTTTTCCTTTCGTGCTAG | 1.08 |
| GACGACCTGAGTCTCGAGACGTGCTAG | 0.741 |
| TACGGTTTCCTTTTCCTGACGTGCTAG | 1.84 |

Series 3
Molecule: B1 (RNF181 RING domain)
Method: yeast two-hybrid
Matrix: yeast
Notes: mostly zero background
Relative to: not given
Reading: higher = stronger interaction
B1: RNF181 RING domain (UniProt Q9P0P0); chain VIRGSQAELKCPVCLLEFEEEETAIEMPCHHLFHSSCILPWLSKTNSCPLCRYELPTDDDTY
| target | lacZ reporter activity |
| --- | --- |
| UBE2Q1 UBC core domain (UniProt Q7Z7E8) | 0 |
| UBE2D2 UBC core domain (UniProt P62837) | 9870 |
| UBE2S UBC core domain (UniProt Q16763) | 0 |
| UBE2D4 UBC core domain (UniProt Q9Y2X8) | 12100 |
| BIRC6 UBC core domain (UniProt Q9NR09) | 0 |
| UBE2I UBC core domain (UniProt P63279) | 0 |
| UBE2J1 UBC core domain (UniProt Q9Y385) | 0 |
| UBE2O UBC core domain (UniProt Q9C0C9) | 0 |
| UBE2J2 UBC core domain (UniProt Q8N2K1) | 11800 |
| UBE2G1 UBC core domain (UniProt P62253) | 0 |
| UBE2B UBC core domain (UniProt P63146) | 0 |
| UBE2C UBC core domain (UniProt O00762) | 0 |
| UBE2Z UBC core domain (UniProt Q9H832) | 0 |

Series 4
Target: RING finger protein unkempt homolog, zinc fingers 1-6, GST-SBP tag (UNK, Homo sapiens, UniProt Q9C0B0, residues 30-357)
Method: RNA Bind-n-Seq
Form: RNA
Matrix: in vitro
Tested at: not given
Notes: RNA with constant flanks, ends assumed
Relative to: input RNA pool
Reading: higher = stronger binding
Target sequence (chain): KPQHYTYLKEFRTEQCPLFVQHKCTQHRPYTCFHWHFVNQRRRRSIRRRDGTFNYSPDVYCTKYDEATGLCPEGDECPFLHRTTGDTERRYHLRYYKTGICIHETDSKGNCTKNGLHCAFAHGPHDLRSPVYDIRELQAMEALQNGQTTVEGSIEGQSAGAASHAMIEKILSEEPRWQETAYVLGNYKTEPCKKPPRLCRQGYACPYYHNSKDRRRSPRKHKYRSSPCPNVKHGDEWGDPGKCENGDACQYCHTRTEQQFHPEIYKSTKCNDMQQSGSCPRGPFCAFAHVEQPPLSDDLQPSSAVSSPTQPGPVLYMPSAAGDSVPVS
| Sequence | bound/input enrichment |
| --- | --- |
| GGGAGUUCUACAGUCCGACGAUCCCUGUCUCAGGUUCAAAAGCUGCUUUGCAUGUGCCCAGUAGAUUUUCAUGGAAUCUUCCAACCCGAUGAAAGACGGAGAGAUGCAGUGAUUGCAUUGGGCAUUUUUCUCAUUGAAUCUGACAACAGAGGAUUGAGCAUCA | 0.169 ratio |
| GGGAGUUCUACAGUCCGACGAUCGGGAUUUACAUGGUUUAUUGUCGAAAACACAAGAAAACUGCACAUAACUCGGAAGCUGAUUCCGAAGAAAGUUUUAAUGAGCAUGAACUGGAGCCCUCAUCUCCAAAGACUAAGAAGAAACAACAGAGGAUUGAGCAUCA | 0.222 ratio |
| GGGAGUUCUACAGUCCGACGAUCGCAGGCUACUUUUUGGAACAUCUGGCUUUCAAGGGAACAAAGAAUCGGCCUGGCAAUGCCUCCGAGAAGGAGGUAGAGAGUAUUGGGGCUCAUCUUAAUGCCUACAGCACUCGAGAGCACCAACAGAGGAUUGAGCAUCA | 0.115 ratio |
| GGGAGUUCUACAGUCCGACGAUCCCAGGGGGUGAUCAAGUACAUGGGGCCGGCAGGAGCAAAGAAUCUGCAGAGUGUUGUGCUCCGUAAAAUGAAUUUUGAAUCUUUUGUAAAAGAUCUUCUUCUGGUUCGUCAGUAUAGAGUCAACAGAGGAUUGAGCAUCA | 0.321 ratio |
| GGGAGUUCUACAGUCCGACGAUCCCAAAGCUGGCAGCACUUCUCCGUGUGUUCAGUACUGUGGUGAGGAGCAUUGGGGAACGCUUCCGCCCAAUUCGGGGUCCACCAAUUACAGAGGCAUACGUAACAGAUGUUCUAUACAGACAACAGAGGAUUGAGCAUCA | 0.0957 ratio |
| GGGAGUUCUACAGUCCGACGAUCAGUUUAAUGUAUAAAGAUCCUCUAGAAAAUGAUAAUAUUGUGUAUUAAGACAUUCCUUAAUCCGGACAAAAUGGCUGCUGUAUAUUUACUAUAUGGAGUUCUGAGUUAAAUACCAUCCUUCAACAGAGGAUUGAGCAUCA | 1.2 ratio |
| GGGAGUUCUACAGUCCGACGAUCCAGAGAGCUUGACCAAGUUACAUAUUCUAGAGAUCGUCCUGAGUGCCAAGCACGUUUAUAAGCCGGGCGUGUAUUCCAGUCCUUUCUGUCAUUCUGUGUGUGUGUGUGUGUGCACUUAUGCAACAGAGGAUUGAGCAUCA | 0.376 ratio |

Series 5
Target: CCNE1, cyclin fold, Cln2 fusion (human)
Method: yeast growth competition, sequencing
Matrix: yeast
Notes: weak parent motif
Relative to: not given
Reading: higher = stronger binding
Starting sequence: PKN2 docking peptide (human); VSAVQKLDFSDTM
| Variant | normalised enrichment score |
| --- | --- |
| V4P | 0.833 |
| L7P | -0.314 |
| D8P | 0.408 |
| V1D | 0.531 |
| M13C | 0.492 |
| M13Q | 0.122 |
| V1C | 1.37 |
| D11W | 0.96 |
| S2P | 0.77 |
| A3C | 0.825 |
| L7R | 0.2 |
| D11P | 0.475 |
| S2W | 0.787 |
| S2V | 0.736 |
| D11F | 0.672 |
| F9L | 0.0047 |

Some of these lines once more (series 5):
| Variant | normalised enrichment score |
| --- | --- |
| V1C | 1.37 |
| A3C | 0.825 |
| V4P | 0.833 |
| F9L | 0.0047 |
| L7R | 0.2 |
| V1D | 0.531 |
| D8P | 0.408 |
